# Assay results collected from several papers.
# Parts stem from different laboratories: compare values within a part only.
# Sequence of UniProt P30291 (whole entry, looked up): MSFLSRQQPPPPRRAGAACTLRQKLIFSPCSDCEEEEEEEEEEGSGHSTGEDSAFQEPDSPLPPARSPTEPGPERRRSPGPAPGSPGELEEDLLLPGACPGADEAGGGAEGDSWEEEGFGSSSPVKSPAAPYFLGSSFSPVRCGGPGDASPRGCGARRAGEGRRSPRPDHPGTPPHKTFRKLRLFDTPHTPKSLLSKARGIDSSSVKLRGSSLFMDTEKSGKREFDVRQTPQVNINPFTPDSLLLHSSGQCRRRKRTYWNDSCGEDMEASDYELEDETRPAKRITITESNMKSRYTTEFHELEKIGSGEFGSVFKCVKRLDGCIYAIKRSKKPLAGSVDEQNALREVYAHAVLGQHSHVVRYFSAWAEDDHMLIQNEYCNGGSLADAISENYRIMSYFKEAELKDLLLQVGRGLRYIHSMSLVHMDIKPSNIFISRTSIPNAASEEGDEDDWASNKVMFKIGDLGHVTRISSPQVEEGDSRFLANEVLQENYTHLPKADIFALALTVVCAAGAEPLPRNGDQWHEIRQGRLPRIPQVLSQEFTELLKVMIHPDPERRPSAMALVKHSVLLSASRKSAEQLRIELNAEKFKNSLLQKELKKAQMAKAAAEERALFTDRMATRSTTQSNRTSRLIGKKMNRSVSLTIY
# Sequence of UniProt Q8WTQ7 (whole entry, looked up): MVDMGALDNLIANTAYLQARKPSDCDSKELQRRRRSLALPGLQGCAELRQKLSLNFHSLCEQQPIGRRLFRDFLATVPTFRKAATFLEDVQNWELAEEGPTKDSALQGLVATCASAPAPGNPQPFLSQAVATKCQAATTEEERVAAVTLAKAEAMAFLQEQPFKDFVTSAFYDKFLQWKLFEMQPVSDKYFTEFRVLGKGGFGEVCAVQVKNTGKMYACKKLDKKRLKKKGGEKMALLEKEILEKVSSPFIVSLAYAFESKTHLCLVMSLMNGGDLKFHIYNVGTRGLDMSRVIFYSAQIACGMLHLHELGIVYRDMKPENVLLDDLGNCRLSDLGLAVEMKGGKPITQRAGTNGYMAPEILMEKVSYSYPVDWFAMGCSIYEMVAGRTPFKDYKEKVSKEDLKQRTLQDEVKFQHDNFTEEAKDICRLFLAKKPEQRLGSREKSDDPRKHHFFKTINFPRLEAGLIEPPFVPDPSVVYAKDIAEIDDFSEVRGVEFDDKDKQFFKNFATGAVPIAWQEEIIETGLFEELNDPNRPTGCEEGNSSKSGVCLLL
# Sequence of UniProt P22607 (whole entry, looked up): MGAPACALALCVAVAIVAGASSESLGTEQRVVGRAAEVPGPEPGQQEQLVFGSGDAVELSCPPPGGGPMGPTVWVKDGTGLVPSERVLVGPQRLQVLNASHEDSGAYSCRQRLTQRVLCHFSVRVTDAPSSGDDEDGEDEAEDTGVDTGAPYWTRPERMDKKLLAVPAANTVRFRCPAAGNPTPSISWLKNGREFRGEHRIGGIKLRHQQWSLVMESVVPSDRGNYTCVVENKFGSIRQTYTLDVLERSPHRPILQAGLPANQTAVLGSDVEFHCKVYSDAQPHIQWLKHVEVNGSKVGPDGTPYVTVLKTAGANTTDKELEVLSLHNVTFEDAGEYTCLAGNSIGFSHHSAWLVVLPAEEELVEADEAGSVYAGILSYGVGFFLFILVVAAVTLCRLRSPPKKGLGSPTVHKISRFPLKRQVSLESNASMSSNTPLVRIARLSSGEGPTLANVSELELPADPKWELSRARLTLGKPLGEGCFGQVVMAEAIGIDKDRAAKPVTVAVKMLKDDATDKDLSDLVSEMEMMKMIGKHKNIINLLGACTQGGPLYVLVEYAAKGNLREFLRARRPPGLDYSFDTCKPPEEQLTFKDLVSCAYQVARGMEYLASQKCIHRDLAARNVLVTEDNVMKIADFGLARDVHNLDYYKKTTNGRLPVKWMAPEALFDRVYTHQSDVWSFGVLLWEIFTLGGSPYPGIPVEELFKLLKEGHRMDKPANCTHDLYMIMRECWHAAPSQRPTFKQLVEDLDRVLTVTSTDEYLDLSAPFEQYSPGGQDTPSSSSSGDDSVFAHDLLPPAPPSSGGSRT
# Sequence of UniProt Q99558 (whole entry, looked up): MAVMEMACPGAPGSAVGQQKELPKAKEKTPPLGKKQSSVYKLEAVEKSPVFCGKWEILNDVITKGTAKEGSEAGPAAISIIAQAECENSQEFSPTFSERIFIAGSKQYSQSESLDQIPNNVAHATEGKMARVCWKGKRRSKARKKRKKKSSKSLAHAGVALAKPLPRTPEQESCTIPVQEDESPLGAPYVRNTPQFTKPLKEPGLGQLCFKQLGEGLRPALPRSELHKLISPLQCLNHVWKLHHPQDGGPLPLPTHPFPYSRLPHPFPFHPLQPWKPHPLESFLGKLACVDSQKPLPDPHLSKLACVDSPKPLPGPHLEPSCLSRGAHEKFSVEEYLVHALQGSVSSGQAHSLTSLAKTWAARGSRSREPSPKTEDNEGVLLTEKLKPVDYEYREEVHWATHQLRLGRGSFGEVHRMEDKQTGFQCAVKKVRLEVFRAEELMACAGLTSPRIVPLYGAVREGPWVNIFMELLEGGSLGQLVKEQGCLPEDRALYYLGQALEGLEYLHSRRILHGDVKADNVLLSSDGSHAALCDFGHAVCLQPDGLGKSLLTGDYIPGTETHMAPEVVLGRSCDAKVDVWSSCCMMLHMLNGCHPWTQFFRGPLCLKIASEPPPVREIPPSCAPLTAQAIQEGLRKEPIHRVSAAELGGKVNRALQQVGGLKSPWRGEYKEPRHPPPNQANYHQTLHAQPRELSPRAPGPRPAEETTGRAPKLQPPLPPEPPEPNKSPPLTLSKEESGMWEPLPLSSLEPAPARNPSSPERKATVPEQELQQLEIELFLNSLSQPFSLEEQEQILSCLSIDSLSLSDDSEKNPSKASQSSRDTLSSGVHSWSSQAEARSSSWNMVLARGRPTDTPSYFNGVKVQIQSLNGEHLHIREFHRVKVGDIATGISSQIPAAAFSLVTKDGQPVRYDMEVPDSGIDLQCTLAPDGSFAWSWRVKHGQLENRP
# Sequence of UniProt Q9UL54 (whole entry, looked up): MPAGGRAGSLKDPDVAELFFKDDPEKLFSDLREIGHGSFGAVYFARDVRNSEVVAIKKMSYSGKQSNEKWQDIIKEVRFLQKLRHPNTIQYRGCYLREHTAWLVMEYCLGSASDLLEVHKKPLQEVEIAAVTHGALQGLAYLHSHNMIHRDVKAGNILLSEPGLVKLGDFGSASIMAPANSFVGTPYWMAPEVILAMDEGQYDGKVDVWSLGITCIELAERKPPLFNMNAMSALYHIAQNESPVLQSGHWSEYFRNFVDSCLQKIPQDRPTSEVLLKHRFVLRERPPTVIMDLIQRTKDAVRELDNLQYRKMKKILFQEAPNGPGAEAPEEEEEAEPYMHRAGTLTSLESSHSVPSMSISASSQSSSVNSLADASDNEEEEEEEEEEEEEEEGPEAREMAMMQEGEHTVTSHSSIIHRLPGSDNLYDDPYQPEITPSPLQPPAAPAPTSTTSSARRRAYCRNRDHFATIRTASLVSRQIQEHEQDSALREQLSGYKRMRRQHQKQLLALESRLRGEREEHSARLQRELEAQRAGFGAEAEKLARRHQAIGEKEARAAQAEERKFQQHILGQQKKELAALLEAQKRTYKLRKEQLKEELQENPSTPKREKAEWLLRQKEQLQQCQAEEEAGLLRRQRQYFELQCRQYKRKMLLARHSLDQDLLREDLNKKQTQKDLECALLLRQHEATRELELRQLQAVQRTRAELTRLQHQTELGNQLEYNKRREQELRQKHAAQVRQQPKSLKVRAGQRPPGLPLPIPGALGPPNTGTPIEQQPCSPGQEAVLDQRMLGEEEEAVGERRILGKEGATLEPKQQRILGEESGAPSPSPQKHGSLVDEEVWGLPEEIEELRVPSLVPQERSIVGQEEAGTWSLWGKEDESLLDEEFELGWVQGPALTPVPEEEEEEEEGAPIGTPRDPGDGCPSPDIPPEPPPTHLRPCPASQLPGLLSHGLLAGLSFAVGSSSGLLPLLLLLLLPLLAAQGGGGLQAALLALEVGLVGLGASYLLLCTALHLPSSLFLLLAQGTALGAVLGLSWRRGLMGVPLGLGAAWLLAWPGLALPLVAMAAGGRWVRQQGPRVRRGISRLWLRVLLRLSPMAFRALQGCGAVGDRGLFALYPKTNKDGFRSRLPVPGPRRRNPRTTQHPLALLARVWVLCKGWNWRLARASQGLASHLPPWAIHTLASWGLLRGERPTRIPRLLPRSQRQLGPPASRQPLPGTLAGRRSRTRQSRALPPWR
# Sequence of UniProt Q6PHR2 (whole entry, looked up): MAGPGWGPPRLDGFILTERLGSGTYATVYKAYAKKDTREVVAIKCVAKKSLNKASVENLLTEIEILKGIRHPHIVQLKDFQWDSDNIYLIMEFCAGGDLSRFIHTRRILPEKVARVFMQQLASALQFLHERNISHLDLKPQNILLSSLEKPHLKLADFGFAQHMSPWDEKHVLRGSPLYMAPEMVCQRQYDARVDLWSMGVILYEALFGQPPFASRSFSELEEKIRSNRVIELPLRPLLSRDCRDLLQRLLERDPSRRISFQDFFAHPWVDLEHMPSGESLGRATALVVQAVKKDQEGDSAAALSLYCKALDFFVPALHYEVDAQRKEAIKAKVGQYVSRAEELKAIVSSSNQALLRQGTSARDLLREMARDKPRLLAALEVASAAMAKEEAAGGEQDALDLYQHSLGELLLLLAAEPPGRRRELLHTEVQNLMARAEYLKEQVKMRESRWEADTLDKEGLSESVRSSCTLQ
# Sequence of UniProt P36507 (whole entry, looked up): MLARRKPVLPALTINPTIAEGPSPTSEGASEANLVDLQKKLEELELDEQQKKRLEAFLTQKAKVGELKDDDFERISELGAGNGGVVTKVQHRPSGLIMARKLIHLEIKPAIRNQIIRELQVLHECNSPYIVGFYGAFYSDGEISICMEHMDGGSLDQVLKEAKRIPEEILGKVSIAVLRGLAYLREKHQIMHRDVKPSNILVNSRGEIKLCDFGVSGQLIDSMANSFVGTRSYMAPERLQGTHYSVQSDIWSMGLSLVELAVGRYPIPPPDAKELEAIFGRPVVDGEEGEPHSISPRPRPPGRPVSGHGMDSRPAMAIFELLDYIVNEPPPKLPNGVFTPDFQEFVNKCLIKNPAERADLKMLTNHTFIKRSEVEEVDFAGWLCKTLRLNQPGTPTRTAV

# Block 1 — cell line: HEK-293T-ACE2; method: Hoechst nuclei count; concentration: concentration not given; setting: counter-screen; baseline: vehicle
SMILES,cell number
CCC(CC)[C@H](NC(C)=O)[C@@H]1[C@H](O)[C@@H](C(=O)O)C[C@H]1NC(=N)N.O.O.O,105%
CS(=O)(=O)c1ccc(C(=O)Nc2ccc(Cl)c(-c3ccccn3)c2)c(Cl)c1,97.5%
CC(C)(C)c1nc(-c2cccc(NS(=O)(=O)c3c(F)cccc3F)c2F)c(-c2ccnc(N)n2)s1,91.9%
O=C(/C=C/c1cccc(S(=O)(=O)Nc2ccccc2)c1)NO,70.5%
Cc1ccc(-n2nccn2)c(C(=O)N2CCN(c3nc4cc(Cl)ccc4o3)CC[C@H]2C)c1,95.7%
Cc1cc(Nc2ncc(Cl)c(Nc3ccccc3S(=O)(=O)C(C)C)n2)c(OC(C)C)cc1C1CCNCC1,95%
CC(C)(C)c1cc(C(C)(C)C)c(NC(=O)c2c[nH]c3ccccc3c2=O)cc1O,96.5%
CNC[C@H](O)[C@@H](O)[C@H](O)[C@H](O)CO.CNC[C@H](O)[C@@H](O)[C@H](O)[C@H](O)CO.C[C@@H](O[C@H]1OCCN(Cc2nn(P(=O)(O)O)c(=O)[nH]2)[C@H]1c1ccc(F)cc1)c1cc(C(F)(F)F)cc(C(F)(F)F)c1,97.7%
COc1c(-c2ccc3cc(NS(C)(=O)=O)ccc3c2)cc(-n2ccc(=O)[nH]c2=O)cc1C(C)(C)C,99.6%
CCCCCOc1ccc(-c2cc(-c3ccc(C(=O)N[C@H]4C[C@@H](O)[C@@H](O)NC(=O)[C@@H]5[C@@H](O)[C@@H](C)CN5C(=O)[C@H]([C@H](O)CC(N)=O)NC(=O)[C@H]([C@H](O)[C@@H](O)c5ccc(O)c(OS(=O)(=O)[O-])c5)NC(=O)[C@@H]5C[C@@H](O)CN5C(=O)[C@H]([C@@H](C)O)NC4=O)cc3)no2)cc1.[Na+],103%
NCCC(O)(P(=O)([O-])O)P(=O)([O-])O.[Na+].[Na+],96.8%
Cc1cc(C#N)cc(C)c1Oc1nc(Nc2ccc(C#N)cc2)nc(N)c1Br,70.7%
CCC[C@H](NC(=O)[C@@H]1[C@H]2CCC[C@H]2CN1C(=O)[C@@H](NC(=O)[C@@H](NC(=O)c1cnccn1)C1CCCCC1)C(C)(C)C)C(=O)C(=O)NC1CC1,101%
C[C@@H]1CCO[C@H]2Cn3cc(C(=O)NCc4ccc(F)cc4F)c(=O)c([O-])c3C(=O)N12.[Na+],101%
Br.Cc1ccc(Sc2ccccc2N2CCNCC2)c(C)c1,96.4%
CC(CN(C)C)CN1c2ccccc2Sc2ccccc21.CC(CN(C)C)CN1c2ccccc2Sc2ccccc21.O=C(O)C(O)C(O)C(=O)O (stereo not drawn),96.9%
COc1cc2nccc(Oc3ccc(NC(=O)C4(C(=O)Nc5ccc(F)cc5)CC4)cc3)c2cc1OC.O=C(O)C[C@H](O)C(=O)O,81.7%
COc1cc2c(cc1Cc1cccc(Cl)c1F)c(=O)c(C(=O)O)cn2[C@H](CO)C(C)C,102%
CC(=O)O[C@]1(C(C)=O)CC[C@H]2[C@@H]3C[C@H](C)C4=CC(=O)CC[C@]4(C)[C@H]3CC[C@@]21C,98.6%
C[C@H]1O[C@]2(CS1)CN1CCC2CC1.C[C@H]1O[C@]2(CS1)CN1CCC2CC1.Cl.Cl.O,98.3%
COC(=O)c1ccc2c(c1)NC(=O)/C2=C(\Nc1ccc(N(C)C(=O)CN2CCN(C)CC2)cc1)c1ccccc1,101%
NCC[C@H](O)C(=O)N[C@@H]1C[C@H](N)[C@@H](O[C@H]2O[C@H](CN)[C@@H](O)[C@H](O)[C@H]2O)[C@H](O)[C@H]1O[C@H]1O[C@H](CO)[C@@H](O)[C@H](N)[C@H]1O.O=S(=O)(O)O.O=S(=O)(O)O,100%
Cl.O=C1[C@@H]2[C@H]3CC[C@H](C3)[C@@H]2C(=O)N1C[C@@H]1CCCC[C@H]1CN1CCN(c2nsc3ccccc23)CC1,101%
COCCc1ccc(OCC(O)CNC(C)C)cc1.COCCc1ccc(OCC(O)CNC(C)C)cc1.O=C(O)CCC(=O)O (stereo not drawn),102%
CC(C)C(=O)OCC(=O)[C@@]12O[C@H](C3CCCCC3)O[C@@H]1C[C@H]1[C@@H]3CCC4=CC(=O)C=C[C@]4(C)[C@H]3[C@@H](O)C[C@@]12C,102%

# Block 2 — mode: inhibitor; concentration: 10 µM; baseline: control
# Target: Diamine acetyltransferase 1 (Homo sapiens, UniProt P21673)
# Residues (P21673 1-171): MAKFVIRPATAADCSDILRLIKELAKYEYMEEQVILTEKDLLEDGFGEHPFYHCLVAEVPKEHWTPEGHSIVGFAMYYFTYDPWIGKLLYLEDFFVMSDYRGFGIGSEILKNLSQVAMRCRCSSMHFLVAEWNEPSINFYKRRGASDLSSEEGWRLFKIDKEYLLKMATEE
Compound,remaining activity
COc1cc2ccc(=O)oc2c2ccoc12,86.6%
CN(C)Cc1c[nH]c2ccccc12,106%
C=C[C@H]1[C@H](O[C@@H]2O[C@H](CO)[C@@H](O)[C@H](O)[C@H]2O)OC=C2C(=O)OCC[C@H]21,96.3%
c1cc2c(cc1[C@H]1OC[C@H]3[C@@H]1CO[C@H]3c1ccc3c(c1)OCO3)OCO2,106%
CCCCC(CC)COC(=O)c1ccccc1C(=O)OCC(CC)CCCC (stereo not drawn),114%

# Block 3 — cell line: HEK-293T-ACE2-TMPRSS2; method: cell count; concentration: 10 µM
SMILES,viability [%]
Cc1ccccc1NC(=O)N1c2ccccc2CC1c1noc(C2CCOCC2)n1 (stereo not drawn),391
O=C(NC1CC(=O)N(Cc2ccccc2Cl)C1)c1cc2ccccc2o1 (stereo not drawn),105
O=C(Cn1ncc(Cl)c(Cl)c1=O)c1ccc(Cl)s1,75
CN(C)C1(CNC(=O)c2ccc(C#CC(C)(C)O)o2)CCSC1 (stereo not drawn),70
Oc1ccc2ccccc2c1N=Nc1ccccn1,65
Cc1cccn2cc(C(=O)N3CCCCC3CCc3ccccn3)nc12 (stereo not drawn),67
CN(C)c1nc2sc(C(=O)N(Cc3ccco3)C3CC3)cc2s1,76
Cc1c(OC(=O)c2cccs2)ccc2c3c(c(=O)oc12)CCCC3,69
Cc1cc2c(cc1O)NC(=O)CC2c1cc(C(C)(C)C)[nH]n1 (stereo not drawn),103
CS(=O)(=O)CC(=O)N1CCCC2(CCNC2)C1 (stereo not drawn),85
Cc1ccc(NC(=O)C(C)Oc2cc(C)nc(N3CCN(c4ccccc4)CC3)n2)cc1 (stereo not drawn),104
CCOc1ccc(CCNc2ncnc3sc(CC)cc23)cc1OCC,72
COc1ccc(NC(=O)Cn2ccc3c(=O)[nH]ccc32)cc1,104
Cc1cccc(CN2CCN(C(=O)c3cn(C4CCCCC4)nn3)CC2=O)c1,112
CC(C)N(Cc1ccccc1)C(=O)Cn1ncc(Br)c(Br)c1=O,66
O=c1c2ccccc2nc(SC2c3ccccc3-c3ccccc32)n1CCCO,65
CC(C)CN1CCOC(CNC(=O)Cn2ncc(Br)c(Br)c2=O)C1 (stereo not drawn),73
Cc1onc(-c2ccccc2Cl)c1-c1nc(CC2CCN(C)CC2)no1,66
CC(=O)NOCc1cccc(-c2cc(F)ccc2C)c1,65
CCn1nc(C)c(C(=O)Nc2cccc(NC(=O)c3ccccc3OC)c2)c1C,76
COc1ccc2c(c1)[nH]c1c(C)nccc12,86
CCn1nccc1C(=O)N1CCC(c2cc(Cc3ccccc3)n[nH]2)CC1,68
CN1CCN(Cc2c(O)ccc3cc(-c4ccc(F)cc4)c(=O)oc23)CC1,66
CCc1n[nH]c(SCC(=O)NC(C)CN2CCc3ccccc3C2)n1 (stereo not drawn),80
COc1ccc(CCN(C)Cc2cnc(S(C)(=O)=O)n2CC2CCCO2)cc1OC (stereo not drawn),109

# Block 4 — effect on: enzyme activity; mode: inhibitor; concentration: 0.5 µM; baseline: control
# Compound: O=C1NC(=O)c2c1c1c3ccccc3n3c1c1c2c2ccccc2n1[C@H]1CC[C@@H]3O1
target,remaining activity [%]
"Fibroblast growth factor receptor 3 (FGFR3, Homo sapiens, UniProt P22607)",36.3
"Mitogen-activated protein kinase kinase kinase 14 (MAP3K14, Homo sapiens, UniProt Q99558)",134
"Ribosomal protein S6 kinase alpha-2 (RPS6KA2, Homo sapiens, UniProt Q15349)",1.33
"Angiopoietin-1 receptor (TEK, Homo sapiens, UniProt Q02763)",94.1
"Serine/threonine-protein kinase Nek1 (NEK1, Homo sapiens, UniProt Q96PY6)",50.9
"Rhodopsin kinase GRK7 (GRK7, Homo sapiens, UniProt Q8WTQ7)",53.4
"Casein kinase I isoform gamma-3 (CSNK1G3, Homo sapiens, UniProt Q9Y6M4)",108
"Ephrin type-A receptor 3 (EPHA3, Homo sapiens, UniProt P29320)",96.5
"Serine/threonine-protein kinase Nek6 (NEK6, Homo sapiens, UniProt Q9HC98)",93.1
"Dual specificity mitogen-activated protein kinase kinase 2 (MAP2K2, Homo sapiens, UniProt P36507)",87.9
"Activin receptor type-1B (ACVR1B, Homo sapiens, UniProt P36896)",113
"Wee1-like protein kinase (WEE1, Homo sapiens, UniProt P30291)",16.9
"Serine/threonine-protein kinase ULK3 (ULK3, Homo sapiens, UniProt Q6PHR2)",33
"Serine/threonine-protein kinase TAO2 (TAOK2, Homo sapiens, UniProt Q9UL54)",57.4

# Repeated from above (block 3):
SMILES,viability [%]
CS(=O)(=O)CC(=O)N1CCCC2(CCNC2)C1 (stereo not drawn),85
Cc1ccc(NC(=O)C(C)Oc2cc(C)nc(N3CCN(c4ccccc4)CC3)n2)cc1 (stereo not drawn),104
CCOc1ccc(CCNc2ncnc3sc(CC)cc23)cc1OCC,72
COc1ccc(NC(=O)Cn2ccc3c(=O)[nH]ccc32)cc1,104
Cc1cccc(CN2CCN(C(=O)c3cn(C4CCCCC4)nn3)CC2=O)c1,112
